Measurements collected from several papers.
Organism: Cryptococcus neoformans

SMILES = C[C@@H](c1ccn(Cc2ccc(Cl)c(Cl)c2)n1)[C@](O)(Cn1cnnn1)c1ccc(F)cc1F; test = growth, broth microdilution; system = H99; conditions = 72 h, 30 °C, ≥50% inhibition; MIC = < 0.008 µg/mL
SMILES = CCCCCCCCCCCCCNCC(=O)N(CC(=O)N(CCCCN)CC(=O)N(CCN)CC(=O)N(CC(N)=O)c1cccc2ccccc12)c1cccc2ccccc12; test = broth microdilution; conditions = 72 h, 35 °C; MIC = 6.25 µg/mL
SMILES = CSc1ccc2c(c1)N(CCC1CCCCN1C)c1ccccc1[S+]2[O-] (stereo not drawn); conditions = highest of replicates; MIC = ≥ 128 µg/mL
SMILES = CCCCCCCCCCCCCC(=O)NCC(=O)N(CC(=O)N(CCCCN)CC(=O)N(CCN)CC(=O)N(CC(N)=O)C1CCCCC1)C1CCCCC1; test = broth microdilution; conditions = 72 h, 35 °C; MIC = 6.25 µg/mL
SMILES = CCCCCC1CC2CCCC3CC(C)N=C(N1)N32 (stereo not drawn); test = fungal growth; system = ATCC 90113; MIC = 3.96 µM
SMILES = CC(C)c1ccc(Cn2ccc([C@H](C)[C@](O)(Cn3cnnn3)c3ccc(F)cc3F)n2)cc1; test = growth, broth microdilution; system = H99; conditions = 72 h, 30 °C, ≥50% inhibition; MIC = < 0.008 µg/mL
SMILES = CCCCCCCCCC1CC2CCC3CC(CCCCCCCCC)NC(=N1)N23 (stereo not drawn); test = fungal growth; system = ATCC 90113; MIC = 2.99 µM
SMILES = CCCCCCCCCCCCCNCC(=O)N(CC(=O)N(CCCCN)CC(=O)N(CCN)CC(=O)N(CC(N)=O)c1ccc2c(c1)CCC2)c1ccc2c(c1)CCC2; test = broth microdilution; conditions = 72 h, 35 °C; MIC = 1.56 to 3.13 µg/mL
SMILES = O=C(NCCNCCO)c1cn(Cc2cccc(Br)c2)c2cc(Cl)c(OCc3ccc(C(F)(F)F)cc3)cc2c1=O; system = ATCC 208821; scale = ≥80% growth inhibition; MIC = < 0.25 µg/mL
SMILES = COC(=O)C1=C(C)N(Cc2ccc(Br)cc2)C(=S)CC1c1ccc(OC)cc1 (stereo not drawn); test = CLSI broth microdilution; system = H99S; conditions = 72 h; MIC = 32 µg/mL
SMILES = C[C@@H](c1ccn(Cc2ccc(F)c(F)c2)n1)[C@](O)(Cn1cnnn1)c1ccc(F)cc1F; test = growth, broth microdilution; system = H99; conditions = 72 h, 30 °C, ≥50% inhibition; MIC = 0.0625 µg/mL
SMILES = CC(=O)c1ccc2c(c1)N(CCCN(C)C)c1ccccc1S2; conditions = highest of replicates; MIC = 64 µg/mL
SMILES = S=c1[nH]c2cccc(Cl)c2n1CCOc1ccccc1; test = CLSI broth microdilution; system = H99S; conditions = 72 h; MIC = 4 µg/mL
SMILES = CCCCCCn1ccc([C@H](C)[C@](O)(Cn2cnnn2)c2ccc(F)cc2F)n1; test = growth, broth microdilution; system = H99; conditions = 72 h, 30 °C, ≥50% inhibition; MIC = 0.5 µg/mL
SMILES = CCn1cc(C(=O)NCCNCCO)c(=O)c2cc(OCc3ccc(C(C)(C)C)cc3)c(Cl)cc21; system = ATCC 208821; scale = ≥80% growth inhibition; MIC = < 0.25 µg/mL
